# Experimental data from different studies.
# Each line is one published result; not all experiments were run side by side. ± gives the spread as reported.
# Chain of UniProt Q15858 (whole entry, looked up): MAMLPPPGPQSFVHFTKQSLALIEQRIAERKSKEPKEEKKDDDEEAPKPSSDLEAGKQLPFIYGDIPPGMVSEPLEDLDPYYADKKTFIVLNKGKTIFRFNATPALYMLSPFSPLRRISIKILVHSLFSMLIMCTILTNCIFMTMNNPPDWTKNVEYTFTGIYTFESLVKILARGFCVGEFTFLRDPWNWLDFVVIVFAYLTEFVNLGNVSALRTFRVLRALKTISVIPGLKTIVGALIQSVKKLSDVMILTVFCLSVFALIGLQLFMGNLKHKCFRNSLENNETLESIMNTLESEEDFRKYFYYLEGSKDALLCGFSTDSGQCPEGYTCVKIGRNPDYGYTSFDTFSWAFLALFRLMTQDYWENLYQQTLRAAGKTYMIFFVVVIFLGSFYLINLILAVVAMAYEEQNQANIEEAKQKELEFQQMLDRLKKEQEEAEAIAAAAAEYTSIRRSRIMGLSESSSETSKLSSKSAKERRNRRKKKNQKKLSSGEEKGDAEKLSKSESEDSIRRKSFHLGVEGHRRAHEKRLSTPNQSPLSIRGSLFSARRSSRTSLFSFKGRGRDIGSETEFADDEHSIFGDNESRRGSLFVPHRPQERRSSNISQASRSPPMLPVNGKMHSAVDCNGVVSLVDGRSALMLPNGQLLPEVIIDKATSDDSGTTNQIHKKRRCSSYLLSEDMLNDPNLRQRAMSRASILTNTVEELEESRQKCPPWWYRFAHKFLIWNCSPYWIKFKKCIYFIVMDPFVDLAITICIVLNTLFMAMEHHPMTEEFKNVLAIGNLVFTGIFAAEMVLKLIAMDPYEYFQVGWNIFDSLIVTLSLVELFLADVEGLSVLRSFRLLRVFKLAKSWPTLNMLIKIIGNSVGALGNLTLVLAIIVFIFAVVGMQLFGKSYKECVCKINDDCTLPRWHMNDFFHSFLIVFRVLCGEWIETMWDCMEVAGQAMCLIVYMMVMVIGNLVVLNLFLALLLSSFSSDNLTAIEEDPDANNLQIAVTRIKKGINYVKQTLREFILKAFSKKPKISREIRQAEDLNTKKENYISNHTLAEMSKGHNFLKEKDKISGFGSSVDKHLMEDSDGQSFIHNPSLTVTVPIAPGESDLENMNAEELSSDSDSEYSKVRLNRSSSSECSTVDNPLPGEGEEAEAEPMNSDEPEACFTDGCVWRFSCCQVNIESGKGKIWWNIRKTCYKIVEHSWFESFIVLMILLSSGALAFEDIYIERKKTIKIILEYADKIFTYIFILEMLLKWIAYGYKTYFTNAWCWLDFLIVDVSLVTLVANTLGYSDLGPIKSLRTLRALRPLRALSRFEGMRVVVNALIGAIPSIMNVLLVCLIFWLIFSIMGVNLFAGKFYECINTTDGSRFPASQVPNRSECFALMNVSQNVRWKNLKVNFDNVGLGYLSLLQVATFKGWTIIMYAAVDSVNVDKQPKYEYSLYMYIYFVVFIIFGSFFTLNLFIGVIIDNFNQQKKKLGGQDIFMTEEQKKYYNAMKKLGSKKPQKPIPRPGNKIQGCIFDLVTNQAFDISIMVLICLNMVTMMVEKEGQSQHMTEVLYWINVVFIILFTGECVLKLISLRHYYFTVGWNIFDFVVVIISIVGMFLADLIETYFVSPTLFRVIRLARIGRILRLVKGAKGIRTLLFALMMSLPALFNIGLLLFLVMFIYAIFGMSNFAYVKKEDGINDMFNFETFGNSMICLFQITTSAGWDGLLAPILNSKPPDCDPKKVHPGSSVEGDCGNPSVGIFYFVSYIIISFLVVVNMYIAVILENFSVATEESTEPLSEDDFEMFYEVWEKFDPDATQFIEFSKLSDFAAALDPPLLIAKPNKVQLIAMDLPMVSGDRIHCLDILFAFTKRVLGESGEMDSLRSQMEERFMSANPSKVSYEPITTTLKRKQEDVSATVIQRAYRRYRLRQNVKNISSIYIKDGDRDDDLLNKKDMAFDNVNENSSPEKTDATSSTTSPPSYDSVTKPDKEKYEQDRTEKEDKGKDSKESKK
# Chain of UniProt P00691 (whole entry, looked up): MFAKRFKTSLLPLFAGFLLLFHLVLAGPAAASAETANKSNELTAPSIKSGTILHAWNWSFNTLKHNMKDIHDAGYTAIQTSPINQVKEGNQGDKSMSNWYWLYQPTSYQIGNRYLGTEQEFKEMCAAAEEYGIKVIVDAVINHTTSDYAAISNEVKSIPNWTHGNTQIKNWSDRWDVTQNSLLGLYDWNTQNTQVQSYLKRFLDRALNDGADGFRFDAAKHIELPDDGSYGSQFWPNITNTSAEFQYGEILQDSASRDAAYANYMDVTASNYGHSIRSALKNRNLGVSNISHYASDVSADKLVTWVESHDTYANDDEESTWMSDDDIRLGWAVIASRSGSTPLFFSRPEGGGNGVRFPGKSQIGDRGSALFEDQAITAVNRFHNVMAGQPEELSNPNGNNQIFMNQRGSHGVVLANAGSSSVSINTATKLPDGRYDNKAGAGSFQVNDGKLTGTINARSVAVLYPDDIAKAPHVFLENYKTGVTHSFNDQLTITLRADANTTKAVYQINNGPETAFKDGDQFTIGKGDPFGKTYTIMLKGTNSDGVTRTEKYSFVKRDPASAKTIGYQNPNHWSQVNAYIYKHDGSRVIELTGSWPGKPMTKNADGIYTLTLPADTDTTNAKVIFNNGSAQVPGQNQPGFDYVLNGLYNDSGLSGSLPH
# Chain of UniProt Q06520 (whole entry, looked up): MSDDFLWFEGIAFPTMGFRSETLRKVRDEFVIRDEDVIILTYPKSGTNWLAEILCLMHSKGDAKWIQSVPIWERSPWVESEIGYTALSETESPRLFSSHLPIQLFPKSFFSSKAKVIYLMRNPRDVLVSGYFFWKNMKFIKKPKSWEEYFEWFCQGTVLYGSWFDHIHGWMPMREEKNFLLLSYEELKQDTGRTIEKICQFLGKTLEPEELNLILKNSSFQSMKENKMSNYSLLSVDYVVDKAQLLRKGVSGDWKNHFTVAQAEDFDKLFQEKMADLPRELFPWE
# Chain of UniProt P08913 (whole entry, looked up): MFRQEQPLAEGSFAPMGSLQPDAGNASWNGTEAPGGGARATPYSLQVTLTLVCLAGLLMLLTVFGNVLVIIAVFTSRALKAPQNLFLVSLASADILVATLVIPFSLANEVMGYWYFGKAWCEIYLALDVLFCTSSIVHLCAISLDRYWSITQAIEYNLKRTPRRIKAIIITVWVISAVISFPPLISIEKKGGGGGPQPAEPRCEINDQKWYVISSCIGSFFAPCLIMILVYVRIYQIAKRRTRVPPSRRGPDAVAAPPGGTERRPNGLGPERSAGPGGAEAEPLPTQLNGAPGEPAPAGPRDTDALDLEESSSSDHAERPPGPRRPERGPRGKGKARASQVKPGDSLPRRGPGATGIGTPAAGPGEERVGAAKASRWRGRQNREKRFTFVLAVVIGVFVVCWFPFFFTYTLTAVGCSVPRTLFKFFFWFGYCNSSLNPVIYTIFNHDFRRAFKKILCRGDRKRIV
# Chain of UniProt O15294 (whole entry, looked up): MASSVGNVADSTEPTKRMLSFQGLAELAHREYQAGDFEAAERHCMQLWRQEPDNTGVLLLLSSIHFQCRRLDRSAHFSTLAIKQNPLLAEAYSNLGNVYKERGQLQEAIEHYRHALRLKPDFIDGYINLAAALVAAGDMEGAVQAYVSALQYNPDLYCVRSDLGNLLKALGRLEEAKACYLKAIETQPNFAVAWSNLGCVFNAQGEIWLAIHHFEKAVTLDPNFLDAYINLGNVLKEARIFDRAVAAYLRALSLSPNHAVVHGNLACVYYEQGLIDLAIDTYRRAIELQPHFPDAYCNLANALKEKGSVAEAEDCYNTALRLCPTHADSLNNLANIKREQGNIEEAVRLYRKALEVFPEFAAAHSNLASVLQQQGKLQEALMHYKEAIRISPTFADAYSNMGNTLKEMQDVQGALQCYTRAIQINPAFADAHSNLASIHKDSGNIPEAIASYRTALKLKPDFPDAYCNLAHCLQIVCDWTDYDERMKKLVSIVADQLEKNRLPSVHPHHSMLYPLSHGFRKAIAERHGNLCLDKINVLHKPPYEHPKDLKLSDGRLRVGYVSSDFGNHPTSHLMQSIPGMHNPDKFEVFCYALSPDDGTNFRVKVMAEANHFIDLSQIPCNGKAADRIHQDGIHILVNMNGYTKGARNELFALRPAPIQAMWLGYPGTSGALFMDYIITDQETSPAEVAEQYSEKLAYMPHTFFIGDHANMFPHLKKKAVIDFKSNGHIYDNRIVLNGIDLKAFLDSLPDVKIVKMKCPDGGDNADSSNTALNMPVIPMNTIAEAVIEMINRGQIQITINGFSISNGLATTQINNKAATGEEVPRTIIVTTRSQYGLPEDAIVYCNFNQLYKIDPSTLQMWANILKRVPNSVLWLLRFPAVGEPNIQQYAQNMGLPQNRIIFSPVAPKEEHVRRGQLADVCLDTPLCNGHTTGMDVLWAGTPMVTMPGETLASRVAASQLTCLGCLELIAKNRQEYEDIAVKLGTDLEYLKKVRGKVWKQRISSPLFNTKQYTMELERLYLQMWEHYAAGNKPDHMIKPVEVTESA
# Chain of UniProt P21397 (whole entry, looked up): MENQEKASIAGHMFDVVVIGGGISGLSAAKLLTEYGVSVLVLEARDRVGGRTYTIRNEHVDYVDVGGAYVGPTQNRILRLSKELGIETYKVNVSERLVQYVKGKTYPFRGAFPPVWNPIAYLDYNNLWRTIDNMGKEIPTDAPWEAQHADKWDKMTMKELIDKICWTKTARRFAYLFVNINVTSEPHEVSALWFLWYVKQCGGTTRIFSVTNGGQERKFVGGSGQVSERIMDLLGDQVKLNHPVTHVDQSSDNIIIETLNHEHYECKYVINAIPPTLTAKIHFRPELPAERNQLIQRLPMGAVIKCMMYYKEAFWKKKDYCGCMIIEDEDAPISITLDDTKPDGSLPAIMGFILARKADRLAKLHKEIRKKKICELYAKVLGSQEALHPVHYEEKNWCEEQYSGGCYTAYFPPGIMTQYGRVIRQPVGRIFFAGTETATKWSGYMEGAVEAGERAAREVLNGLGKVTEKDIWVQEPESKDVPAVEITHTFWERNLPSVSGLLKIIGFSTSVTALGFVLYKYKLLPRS
Compound,target,test,system,setting,scale,quantity,result
C=C(CC)C(=O)c1ccc(OCC(=O)NCCNC(=O)COc2ccc(C(=O)C(=C)CC)c(Cl)c2Cl)c(Cl)c1Cl,"Glutathione S-transferase Mu 2 (Homo sapiens, UniProt P28161)","enzyme activity, inhibitor",,no preincubation,baseline: GSTP IC50 over GSTM IC50,selectivity ratio,~15 fold
CC[C@H](C)[C@H](NC(=O)[C@H](Cc1c[nH]cn1)NC(=O)[C@H](CCCCNC(=O)[C@@H](NC(=O)[C@H](CCCCN)NC(=O)[C@H](Cc1ccccc1)NC(=O)[C@H](CCCCNC(=O)[C@H](CC(C)C)NC(=O)[C@@H]1CCCN1C(=O)[C@H](CCCCN)NC(=O)c1ccc(O[C@@H]2O[C@H](CO)[C@H](O)[C@H](O)[C@H]2O)cc1)NC(=O)[C@H](CC(C)C)NC(=O)[C@@H]1CCCN1C(=O)[C@H](CCCCN)NC(=O)c1ccc(O[C@@H]2O[C@H](CO)[C@H](O)[C@H](O)[C@H]2O)cc1)[C@@H](C)CC)NC(=O)[C@@H](NC(=O)[C@H](CCCCN)NC(=O)[C@H](Cc1ccccc1)NC(=O)[C@H](CCCCNC(=O)[C@H](CC(C)C)NC(=O)[C@@H]1CCCN1C(=O)[C@H](CCCCN)NC(=O)c1ccc(O[C@@H]2O[C@H](CO)[C@H](O)[C@H](O)[C@H]2O)cc1)NC(=O)[C@H](CC(C)C)NC(=O)[C@@H]1CCCN1C(=O)[C@H](CCCCN)NC(=O)c1ccc(O[C@@H]2O[C@H](CO)[C@H](O)[C@H](O)[C@H]2O)cc1)[C@@H](C)CC)C(N)=O,"lecA (Pseudomonas aeruginosa, UniProt Q05097)","binding, isothermal titration calorimetry",,divided by galactoside copies,baseline: monovalent galactoside KD over ligand KD,relative potency per galactoside,300
C[C@]12CC[C@H](O)CC1CCC1C2[C@H](O)C(=O)[C@]2(C)[C@@H](c3ccc(=O)oc3)CC[C@]12O (stereo partly shown),"SULT2A1 (Homo sapiens, UniProt Q06520)","sulfation, substrate",human liver cytosol,"concentration not given, anti-SULT2A1 immunoprecipitation",baseline: control cytosol,remaining activity,54%
CC(C)P(=S)(NP(=S)(C(C)C)C(C)C)C(C)C,"Alpha-amylase (Bacillus subtilis, UniProt P00691)",fluorescence quenching,,"concentration not given, 304 K",,number of binding sites,0.79 ± 0.05
CC[C@H](C)[C@@H]1NC(=O)[C@H](Cc2ccc(O)cc2)NC(=O)[C@@H](N)CSSC[C@@H](C(=O)N2CCC[C@H]2C(=O)N2CCC[C@H]2C(=O)NCC(N)=O)NC(=O)[C@H](CC(N)=O)NC(=O)[C@H](CCC(N)=O)NC1=O,"Oxytocin receptor (OXTR, Homo sapiens, UniProt P30559)",membrane hyperpolarisation,CHO cells,,,Emax,5300 RFU
Cc1cc(O)cc(C)c1CC(N)C(=O)NC1CCNc2c(C(=O)NCc3ccccc3)cc(Cc3ccccc3)cc21 (stereo not shown),"Oprm1 (Rattus norvegicus, UniProt P33535)",agonist,C6 cells expressing MOR,,baseline: DAMGO at 10 µM,efficacy,73%
CCN(Cc1ccccc1)C(=O)CCc1nc(CN2CCN(C(=O)Cc3ccc(OC)c(OC)c3)CC2)no1,"SCN9A (Homo sapiens, UniProt Q15858)","sodium current, whole-cell patch clamp","HEK293, stable",10 µM,,inactivation V1/2,-75.4 mV
CN[C@@H](C)C(=O)N[C@H](C(=O)N1C[C@@H](NC(=O)COCCOCCOCCOCc2cn(CCNC(=O)CN(Cc3cccs3)C(=O)[C@H](NS(=O)(=O)c3cc4ccc(O)nc4cc3Cl)c3ccccc3OC)nn2)C[C@H]1C(=O)N[C@@H]1CCCc2ccccc21)C1CCCCC1,"OGT (Homo sapiens, UniProt O15294)",western blot,MM1.S,"0.1, 1.0 and 10 µM, 16 h",,protein level,no effect
O=P(O)(O)Oc1ccccc1,"Alkaline phosphatase PafA (pafA, Elizabethkingia meningoseptica, UniProt Q9KJX5, N100A)",,Chryseobacterium meningosepticum,pH 8.0,baseline: wild type over mutant kcat/KM,relative catalytic efficiency,5.5
"COC(=O)C1C(OC(c2ccc(Cl)cc2)c2ccc(Cl)cc2)CC2CCC1N2C (single isomer, unassigned)","ADRA2A (Homo sapiens, UniProt P08913)","binding, radioligand displacement",,"inactive if below 75% at 10000 nM, with: [3H]MK-912",,Ki,inactive
CN(C)C(=O)C(NC(=O)c1ccccc1-c1ccc(C(F)(F)F)cc1)c1cccc(C(F)(F)F)c1 (stereo not shown),"NKG2-D type II integral membrane protein, with ULBP6 (KLRK1, Homo sapiens, UniProt P26718)",cellular TR-FRET displacement,,pIC50 minus ChromLogD,,LLE,"5 ± 0.9 , 1.4"
O=C(N[C@H]1CCOC1=O)c1ccc(-n2cc(C3CCCC3)nn2)cc1,"lasR (Pseudomonas aeruginosa, UniProt P25084)","reporter gene, agonist",Escherichia coli DH5α pJN105L/pSC11,10 µM,baseline: OdDHL 100 µM,activation,1%
NC(=O)N/N=C/c1ccc(OCc2ccccc2)cc1,"MAOA (Homo sapiens, UniProt P21397)","enzyme activity, inhibitor, absorbance",,10 µM,,remaining activity,81.5%

# Some of these lines once more:
Compound,target,test,system,setting,scale,quantity,result
Cc1cc(O)cc(C)c1CC(N)C(=O)NC1CCNc2c(C(=O)NCc3ccccc3)cc(Cc3ccccc3)cc21 (stereo not shown),"Oprm1 (Rattus norvegicus, UniProt P33535)",agonist,C6 cells expressing MOR,,baseline: DAMGO at 10 µM,efficacy,73%
